Assay results gathered from unrelated publications.
Lines come from different studies, so protocols differ.
Target: Serine/threonine-protein kinase MARK1 (MARK1, Homo sapiens, UniProt Q9P0L2)

Cc1ccc(-c2c(/C=C(\C#N)C(=O)NC(C)C)n(CCCO)c3ncnc(N)c23)cc1  remaining binding (cell-free assay, competition with immobilised ligand; 1 µM): 100%
CCN1CCN(Cc2ccc(C(=O)Nc3ccc(C)c(NCc4cnc5[nH]ccc5c4OC)c3)cc2C(F)(F)F)CC1  remaining binding (binding, competition with immobilised ligand; 1 µM): 72%
O=C=[N][Ru-4]123([n]4c5ccc(O)cc5c5c6c(c7cc(F)c[n+]1c7c54)C(=O)NC6=O)[S+]1CC[S+]2CC[S+]3CC1 (stereo not drawn)  remaining activity (enzyme activity; 100 nM, human enzyme, together with: 10 µM ATP; reference: untreated): 78%
Cc1cccc(O[C@H]2CCC[C@@H](C(C)CNCc3ccncc3)C2)c1 (relative stereo)  inhibition (enzyme activity, inhibitor; 10 µM): -2%
NC(=O)C[C@H]1CCc2sc3ncnc(O[C@H]4CC[C@H](N5CCOCC5)CC4)c3c21  inhibition (enzyme activity, inhibitor; 10 µM): -2%
CN1CCN(Cc2ccc(-c3ccc(CO[C@H]4CCC[C@@H]4NC(=O)c4cc(-c5cnn(C)c5)cnc4N)cc3)cc2)CC1  inhibition (enzyme activity, inhibitor; 0.1 µM): 3%
C=CC(=O)N1CCCC(n2c(=O)c3ncccc3n(Cc3ccc(Oc4ccccc4)cc3)c2=O)C1 (stereo not drawn)  remaining binding (cell-free assay, competition with immobilised ligand; 1 µM): 90%
C=CC(=O)Nc1cccc(-c2cnc3[nH]cc(C(=O)NC(C)(C)C)c3n2)c1  inhibition (enzyme activity, inhibitor; 0.1 µM): 51%
COc1c(Cl)cccc1Nc1c(-c2ccncc2C#C[C@@]2(C)CCCN2C(=O)/C=C/CN(C)C)[nH]c2c1C(=O)NCC2  remaining binding (binding, competition with immobilised ligand; 3 µM): 83%
Nc1ncc2c(n1)-c1c([nH]c3ccc(C4=CCOCC4)cc13)CCC2  remaining binding (binding, competition with immobilised ligand; 1 µM): 100%
COc1c(OCCCN2CCOCC2)ccc2c1N=C(NC(=O)c1cnc(N)nc1)N1CCN=C21  remaining activity (kinase activity, inhibitor; 1 µM; reference: untreated control): 100%
O=C(Cc1ccc(OCc2ccccc2)cc1)NC1(C(=O)O)CCN(C(=O)c2ccc(-c3cccc(Cl)c3)cc2)CC1  activity vs control (enzyme activity, inhibitor; 10 µM): 115%
Cc1nc2c(F)cc(-c3nc(Nc4ccc(CNC(=O)CCCCCCC(=O)NO)cc4)ncc3F)cc2n1C(C)C  inhibition (enzyme activity, inhibitor; 1 µM): 22%
Nc1ncc(-c2cc(-c3cnn(CC(F)(F)F)c3)ncc2F)nc1C(=O)NC1CNCC(F)C1 (stereo not drawn)  remaining activity (enzyme activity; 1 µM; reference: DMSO control): 95.8%
COc1cc(Nc2nccc(-c3cnn4nc(OC)ccc34)n2)cc(C(F)(F)F)c1  remaining binding (binding, competition with immobilised ligand; 1 µM): 88%

A few entries again:
COc1cc(Nc2nccc(-c3cnn4nc(OC)ccc34)n2)cc(C(F)(F)F)c1  remaining binding (binding, competition with immobilised ligand; 1 µM): 88%
